Results pooled from the literature.
Each numbered part is a random draw from the data of one study; scales do not carry over between parts.

Series 1 — cell line: HEK-293T; read-out: pseudovirus infection; organism: VSV pseudotyped with SARS-CoV-2 spike; concentration: 10 µM; time: 16 h; reference: vehicle-treated; measurement: GFP-positive cells
Cn1c(=O)c2[nH]cnc2n(C)c1=O: 106%
CC(=O)O[C@H]1Cc2ccccc2N(C(N)=O)c2ccccc21: 76.2%
O=P(O)(O)C(O)(Cn1ccnc1)P(=O)(O)O: 77.4%
COc1cc2nc(N3CCN(C(=O)C4COc5ccccc5O4)CC3)nc(N)c2cc1OC (stereo not drawn): 79%

Series 2 — method: RNA Bind-n-Seq; form: RNA; sample: in vitro; concentration: 200 nM; setting: whole 134-nt RNA, ends assumed; with: 150 mM KCl; reference: input library; direction: higher = stronger binding; measurement: log2 enrichment
Target: Fragile X messenger ribonucleoprotein 1, C-terminal low-complexity region (Fmr1, Mus musculus, UniProt P35922)
Shared flanks, not repeated: GGGAGUUCUACAGUCCGACGAUC … UGGAAUUCUCGGGUGUCAAGG
AAGUCCUGUGCUACACAUCGUAUGUACCGAAUCGGGGAAAGGGAAAGGGGAAAGGGAAAGUAUUAUGUUACGCCGUUCGGAUCUGCACUU: 0.255
UGGGAGGUGGAUUUUGUUUAUUUUUUUAGCUCAUUUCCAGGGGUUGGAAUUUUUUUUUAAUAUGUGUCAUGAAUAAAGUUGUUUUUGAAA: -0.0441
UUGCAUUUCGAACGCGUUCUAAGAUGCCCCUGAAAGAUGUUCCCCUGGGCCAAUUAGAGGCAGAGCUCCAAGCUCCAGACAUCACUCCAG: 0.419
UCAAGUCCUGUGCUACACAUCGUAUGUACCGAAUCGGUUUUUUUGGUUUGGUGGAAAGUAUUAUGUUACGCCGUUCGGAUCUGCACUUCC: -0.708
UGGACUGCCUAUGGAAGAAGAAGUUCAAGAAGGAGCACGAGGAGUUUGAGACCAUGGAGAACGUGAACCGCCUUCUUCUGGAGAACGUCC: -0.361
CCUGUGCUACACAUCGUAUGUACCGAAUCGGCCCCCCCGGGGCCCCCCCGGCCCCCCCGGGAAAGUAUUAUGUUACGCCGUUCGGAUCUG: -0.497
GCAGGAAGUAAAAAUAAAUGGAAAUGCUUCGGAUAGUGGCAGGGGUGGGGGUUGCUAAGGAAAGGGUGGGAUGGGAGUGGGUAAAGAGUU: 0.191
CCUGUGCUACACAUCGUAUGUACCGAAUCAAACCCCCCCAAAUUUUUAAACCCCCCCAAAAAAGUAUUAUGUUACGCCGUUCGGAUCUGC: -0.85

Series 3 — action: inhibitor; concentration: 20 µM; measurement: inhibition
Target: Replicase polyprotein 1ab, nsp13 helicase (rep, Severe acute respiratory syndrome coronavirus 2, UniProt P0DTD1)
CO[C@H]1CC[C@H](N2C(=O)CNc3ncc(-c4ccc(C(C)(C)O)nc4)nc32)CC1: 74.1%
COc1ccc(CCCOC(Cn2ccnc2)c2ccc(OC)cc2)cc1 (stereo not drawn): -3.66%
CCOC(=O)NNc1nncc2ccccc12: 0.02%
Nc1ccccc1NC(=O)c1ccc(CNc2nccc(-c3cccnc3)n2)cc1: 15.2%
N#Cc1ccccc1-c1cc(-c2ccccn2)cn(-c2ccccc2)c1=O: 3.42%
O=P1(NCCCl)OCCCN1CCCl (stereo not drawn): -0.24%
Cc1cccc(N(C)C(=S)Oc2ccc3ccccc3c2)c1: 1.81%
NC(Cc1ccc(Cl)cc1)C(=O)O (racemic): 1.86%
NC(=O)NCCC[C@H](N)C(=O)O: 3.05%
Cc1[nH]cnc1CN1CCc2c(c3ccccc3n2C)C1=O: -2.03%
CC(C)(O)CC(=O)O: 7.37%
CC(C)(C)[C@]1(O)C[C@@H]2OC(=O)C[C@@]23C(=O)O[C@@H]2OC(=O)[C@H](O)[C@]213: 5.24%
O=C(N/N=C/c1ccc([N+](=O)[O-])o1)c1ccc(O)cc1: 8%
CC(NCCC(c1ccccc1)c1ccccc1)c1ccccc1 (stereo not drawn): -1.31%
CCCCCCCCc1ccc(CCC(N)(CO)CO)cc1: 8.2%
COCc1c[n+]([O-])c(C)cn1: 6.3%
COc1ccc(-n2nc(CCC(=O)N(C)O)cc2-c2ccc(Cl)cc2)cc1: -0.25%
O=C(O)c1ccc(Nc2ncc3c(n2)-c2ccc(Cl)cc2C(c2c(F)cccc2F)=NC3)cc1: 11.8%
C#C[C@]1(O)CC[C@H]2[C@@H]3CCC4=CC(=NO)CC[C@@H]4[C@H]3CC[C@@]21CC (mixture of isomers): 1.13%
Nc1ccc(C(=O)OCC(O)CO)cc1 (stereo not drawn): 5.08%
CCOC(=O)c1ncn2c1CN(C)C(=O)c1cc(N=[N+]=[N-])ccc1-2: 0.13%
CCOC(=O)[C@H](CCc1ccccc1)N[C@@H](C)C(=O)N(CC(=O)O)C1Cc2ccccc2C1: 1.57%
Cc1cc2nc3c(=O)[nH]c(=O)nc-3n(C)c2cc1C=O: 3.67%
COC(=O)C1=C(C)NC(C)=C(C(=O)OCCSc2ccccc2)C1C (stereo not drawn): 6.02%
CC(C)c1ccc2c(c1)CC[C@H]1[C@](C)(CN)CCC[C@]21C: -0.11%

Series 4 — read-out: enzyme activity; action: inhibitor; measurement: IC50
Target: Replicase polyprotein 1ab, main protease (rep, Severe acute respiratory syndrome coronavirus 2, UniProt P0DTD1)
CCN(CC)S(=O)(=O)c1cccc(-n2sc3ccccc3c2=O)c1: 5.75 µM
CCC1=C[C@@H]2CN(C1)Cc1c([nH]c3ccccc13)[C@@](C(=O)OC)(c1cc3c(cc1OC)N(C)[C@H]1[C@@](O)(C(=O)OC)[C@H](OC(C)=O)[C@]4(CC)C=CCN5CC[C@]31[C@@H]54)C2: > 20 µM
c1ccc2sc(SSc3nc4ccccc4s3)nc2c1: 0.54 µM
NC(Cc1cc(O)c(O)cc1O)C(=O)O (stereo not drawn): > 20 µM

Series 5 — method: protein-binding microarray; form: double-stranded DNA, one strand shown; sample: in vitro; concentration: 940 nM top; setting: 60-bp whole probe; with: salmon DNA 0.4 mg/ml; reference: random background probes; direction: higher = stronger binding; measurement: fitted relative affinity; shared flanks, not repeated: GCCTAGCAC … GTCTTGATTCGCTTGACGCTGCTG
Target: Interferon regulatory factor 5, full length, phosphomimetic (IRF5, Homo sapiens, UniProt Q13568-2, residues 1-514, S451D/S453D/S456D/S462D)
GACGAACTGAGTCTCGAGAGGTGCTAG: 0.411 z-score
TCAACAATTTCAGATTCCACTGTGCTA: 0.839 z-score
TCATCTTTCCACTTTCTACTGTGCTAG: 2.16 z-score
GACGGTCTCCTACTGCAGACGTGCTAG: 0.0612 z-score
GACGATTTCGGGTTTCGACACGTGCTA: 2.49 z-score
TCATGTCTGGGCATTTTTACTGTGCTA: 0.0771 z-score
GACGTTTTCAGTTCCGAGACGTGCTAG: 1.36 z-score
GACGGTCTCGGTATCGCGACGTGCTAG: 3.79 z-score

Series 6 — method: universal PBM; form: double-stranded DNA, one strand shown; sample: in vitro; concentration: 600 nM; direction: higher = stronger binding; measurement: E-score
Target: Sal-like protein 4, full length isoform A (SALL4, Homo sapiens, UniProt Q9UJQ4, residues 1-1053)
UniProt Q9UJQ4, sequence (whole entry, looked up): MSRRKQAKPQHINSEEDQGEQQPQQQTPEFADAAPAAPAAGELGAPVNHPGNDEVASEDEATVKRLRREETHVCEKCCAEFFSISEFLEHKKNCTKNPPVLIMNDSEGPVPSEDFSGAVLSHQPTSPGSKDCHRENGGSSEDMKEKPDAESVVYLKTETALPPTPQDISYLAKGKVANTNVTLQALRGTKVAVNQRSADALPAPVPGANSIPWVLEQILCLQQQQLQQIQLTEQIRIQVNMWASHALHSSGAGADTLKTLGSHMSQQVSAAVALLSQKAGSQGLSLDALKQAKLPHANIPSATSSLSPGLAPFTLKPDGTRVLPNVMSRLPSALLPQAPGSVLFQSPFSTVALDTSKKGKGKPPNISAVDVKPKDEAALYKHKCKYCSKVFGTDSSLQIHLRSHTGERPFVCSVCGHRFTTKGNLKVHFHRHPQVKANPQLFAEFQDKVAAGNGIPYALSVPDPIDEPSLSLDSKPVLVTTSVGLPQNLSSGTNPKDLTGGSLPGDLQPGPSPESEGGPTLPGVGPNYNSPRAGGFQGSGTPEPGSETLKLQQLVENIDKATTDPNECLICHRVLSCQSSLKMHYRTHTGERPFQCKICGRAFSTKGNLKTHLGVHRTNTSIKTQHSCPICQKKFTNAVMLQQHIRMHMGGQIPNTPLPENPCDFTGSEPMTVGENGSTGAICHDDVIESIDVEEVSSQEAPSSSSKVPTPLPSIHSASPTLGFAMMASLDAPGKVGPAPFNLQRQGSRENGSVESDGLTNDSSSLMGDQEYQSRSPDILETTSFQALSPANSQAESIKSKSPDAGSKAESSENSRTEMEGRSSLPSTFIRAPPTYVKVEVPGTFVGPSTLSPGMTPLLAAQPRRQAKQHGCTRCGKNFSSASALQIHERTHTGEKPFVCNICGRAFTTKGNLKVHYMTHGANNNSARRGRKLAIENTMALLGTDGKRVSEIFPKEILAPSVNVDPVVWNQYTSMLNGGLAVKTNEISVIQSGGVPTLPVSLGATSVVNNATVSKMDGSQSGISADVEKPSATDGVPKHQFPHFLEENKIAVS
Setting: 8-mer, flanks averaged, mean of replicates
GAACGCGC: -0.278
GAAATCCA: 0.157
AAATGAGG: 0.0362
GCTGCATA: 0.0573
AACCCGGC: -0.312
CAGCGTAA: 0.0893
ATCTGCTC: -0.0586
AAGGAGGA: 0.0892
